Measurements pooled from the literature.
Each line is one published result; not all experiments were run side by side.
Cell line: HEK293

Cc1ccc(-n2cc(CSc3nc4ccccc4n3Cc3cn(-c4ccc(C)cc4)nn3)nn2)cc1  viability (MTT; 62.5 ppm): 29.4%
N=C(N)NCCC[C@@H]1NC(=O)[C@H](CCCNC(=N)N)NC(=O)[C@@H](CCCNC(=N)N)NC(=O)[C@@H](CCCNC(=N)N)NC(=O)[C@@H](C(c2ccccc2)c2ccccc2)NC(=O)[C@H](Cc2c[nH]c3ccccc23)NC(=O)[C@@H](C(c2ccccc2)c2ccccc2)NC1=O  viability (cell growth or viability, MTS; 200 µg/mL, 24 h): 72 to 77%
CN1CCCNC(=O)c2cccc(c2)C(=O)NCCCN(C)CCCNc2cccc3c2C(=O)c2cccc(c2C3=O)NCCC1  viability (cell growth or viability, CCK-8; 15 µM, 48 h): 4.66%
O=C(CN1C(=O)CSC1=O)Oc1ccc(/C=N/NC(=O)c2ccncc2)cc1Cl  viability (cell growth or viability, MTT; 50 µg/mL, 24 h): > 70%
c1cc2nc(c1)-c1cccc(n1)CCCc1ccc(cc1)OCCCCCCOc1ccc(cc1)CCC2  viability (cell growth or viability, MTT; 50 µM, 24 h): 74.5%
O=C(CN1C(=O)CSC1=O)Oc1ccc(/C=N/NC(=O)c2ccncc2)cc1  viability (cell growth or viability, MTT; 40 µg/mL, 24 h): > 70%
CC[C@H](C)[C@@H](C(=O)N[C@@H](Cc1ccc(O)cc1)C(=O)N1CCC[C@H]1C(=O)N[C@@H](Cc1ccccc1)C(=O)O)n1cc(C(Cc2ccc(O)cc2)NC(=O)[C@@H](NC(=O)[C@H](CCCNC(=N)N)NC(=O)[C@@H](N)CC(=O)O)C(C)C)nn1 (stereo partly drawn)  viability (cell growth or viability, MTT; 12.5 µM, 24 h): 97.1%
O=C(CN1C(=O)CSC1=O)Oc1ccc(/C=N/NC(=O)c2ccncc2)cc1Br  viability (cell growth or viability, MTT; 50 µg/mL, 24 h): > 70%
N=C(N)NCCC[C@@H]1NC(=O)[C@H](CCCNC(=N)N)NC(=O)[C@@H](CCCNC(=N)N)NC(=O)[C@@H](CCCNC(=N)N)NC(=O)[C@@H](Cc2ccc3ccccc3c2)NC(=O)[C@H](Cc2c[nH]c3ccccc23)NC(=O)[C@@H](Cc2ccc3ccccc3c2)NC1=O  viability (cell growth or viability, MTS; 200 µg/mL, 24 h): 67 to 72%

Some of these lines once more:
O=C(CN1C(=O)CSC1=O)Oc1ccc(/C=N/NC(=O)c2ccncc2)cc1  viability (cell growth or viability, MTT; 40 µg/mL, 24 h): > 70%
